Measured values gathered from unrelated publications.
Every numbered part comes from another study and shows a few of its results, in no order. Several values in a cell are separate wells, animals, samples, runs or records.
Chain of UniProt P45984 (whole entry, looked up): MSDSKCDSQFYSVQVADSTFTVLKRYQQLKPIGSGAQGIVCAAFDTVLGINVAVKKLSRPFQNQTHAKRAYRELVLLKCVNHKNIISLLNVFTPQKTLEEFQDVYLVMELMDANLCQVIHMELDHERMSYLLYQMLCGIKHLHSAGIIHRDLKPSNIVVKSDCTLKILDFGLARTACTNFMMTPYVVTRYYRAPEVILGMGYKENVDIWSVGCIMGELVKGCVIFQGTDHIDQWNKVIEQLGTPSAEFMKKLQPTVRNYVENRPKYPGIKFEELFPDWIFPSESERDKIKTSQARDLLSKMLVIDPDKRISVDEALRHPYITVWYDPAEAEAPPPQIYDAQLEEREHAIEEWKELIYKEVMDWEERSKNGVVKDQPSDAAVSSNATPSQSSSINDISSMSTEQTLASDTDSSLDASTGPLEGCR
Chain of UniProt Q15569 (whole entry, looked up): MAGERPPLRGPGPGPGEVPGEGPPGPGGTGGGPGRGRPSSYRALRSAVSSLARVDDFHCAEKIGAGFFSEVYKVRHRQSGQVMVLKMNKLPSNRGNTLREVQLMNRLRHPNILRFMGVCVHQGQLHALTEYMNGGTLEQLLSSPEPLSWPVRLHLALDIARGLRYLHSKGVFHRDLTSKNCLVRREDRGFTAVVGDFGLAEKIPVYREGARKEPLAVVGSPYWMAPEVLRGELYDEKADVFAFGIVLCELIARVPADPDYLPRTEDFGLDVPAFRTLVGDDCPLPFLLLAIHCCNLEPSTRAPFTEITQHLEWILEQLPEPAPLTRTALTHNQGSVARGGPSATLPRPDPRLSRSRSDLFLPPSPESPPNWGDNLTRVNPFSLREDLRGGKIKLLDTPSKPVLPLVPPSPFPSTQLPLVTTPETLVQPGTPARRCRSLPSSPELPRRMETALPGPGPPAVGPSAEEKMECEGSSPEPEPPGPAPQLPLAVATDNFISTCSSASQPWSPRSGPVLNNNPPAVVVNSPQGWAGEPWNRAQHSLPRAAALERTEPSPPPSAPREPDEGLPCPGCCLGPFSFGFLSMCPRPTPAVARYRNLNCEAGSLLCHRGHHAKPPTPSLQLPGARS
Chain of UniProt Q7KZI7 (whole entry, looked up): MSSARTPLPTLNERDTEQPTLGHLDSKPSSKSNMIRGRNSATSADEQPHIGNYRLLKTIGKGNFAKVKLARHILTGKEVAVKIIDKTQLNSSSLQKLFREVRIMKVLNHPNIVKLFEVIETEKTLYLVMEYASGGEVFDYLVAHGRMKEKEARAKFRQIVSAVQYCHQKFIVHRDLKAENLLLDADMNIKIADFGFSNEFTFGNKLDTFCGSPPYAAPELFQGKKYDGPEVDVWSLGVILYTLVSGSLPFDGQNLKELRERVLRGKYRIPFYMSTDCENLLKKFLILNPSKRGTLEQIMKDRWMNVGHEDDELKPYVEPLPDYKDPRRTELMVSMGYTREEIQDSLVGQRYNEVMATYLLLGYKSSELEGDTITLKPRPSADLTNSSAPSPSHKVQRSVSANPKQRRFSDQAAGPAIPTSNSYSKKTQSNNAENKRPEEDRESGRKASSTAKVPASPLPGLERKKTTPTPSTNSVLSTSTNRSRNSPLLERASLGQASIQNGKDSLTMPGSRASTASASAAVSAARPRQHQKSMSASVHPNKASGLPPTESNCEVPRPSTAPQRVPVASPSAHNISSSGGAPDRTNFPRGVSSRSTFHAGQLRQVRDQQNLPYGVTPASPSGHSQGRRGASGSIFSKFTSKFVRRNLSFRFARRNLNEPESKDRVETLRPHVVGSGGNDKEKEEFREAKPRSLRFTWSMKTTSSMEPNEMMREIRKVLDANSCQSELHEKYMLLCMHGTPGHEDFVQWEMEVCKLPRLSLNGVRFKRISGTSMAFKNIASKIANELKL
Chain of UniProt Q9BZL6 (whole entry, looked up): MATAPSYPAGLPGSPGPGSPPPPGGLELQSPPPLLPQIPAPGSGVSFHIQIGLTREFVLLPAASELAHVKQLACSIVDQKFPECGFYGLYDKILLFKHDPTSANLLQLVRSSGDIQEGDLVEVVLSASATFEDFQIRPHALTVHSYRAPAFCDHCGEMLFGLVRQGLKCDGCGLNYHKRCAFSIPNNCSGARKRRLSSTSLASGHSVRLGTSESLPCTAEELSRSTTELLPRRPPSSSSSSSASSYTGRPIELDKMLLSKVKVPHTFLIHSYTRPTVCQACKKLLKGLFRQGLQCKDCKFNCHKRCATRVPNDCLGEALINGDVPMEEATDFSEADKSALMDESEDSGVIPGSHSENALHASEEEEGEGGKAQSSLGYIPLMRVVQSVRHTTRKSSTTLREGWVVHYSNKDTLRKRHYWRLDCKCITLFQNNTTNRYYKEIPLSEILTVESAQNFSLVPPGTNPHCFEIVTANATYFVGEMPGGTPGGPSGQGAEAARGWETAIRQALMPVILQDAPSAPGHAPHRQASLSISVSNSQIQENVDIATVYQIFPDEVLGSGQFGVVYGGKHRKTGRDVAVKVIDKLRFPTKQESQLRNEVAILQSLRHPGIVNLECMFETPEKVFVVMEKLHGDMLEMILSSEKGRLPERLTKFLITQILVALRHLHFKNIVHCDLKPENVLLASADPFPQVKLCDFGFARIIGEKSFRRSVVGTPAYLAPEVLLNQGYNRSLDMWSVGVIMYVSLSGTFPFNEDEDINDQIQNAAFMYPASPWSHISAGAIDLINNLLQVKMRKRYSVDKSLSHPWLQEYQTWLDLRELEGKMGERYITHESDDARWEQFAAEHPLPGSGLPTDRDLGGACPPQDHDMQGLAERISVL
Chain of UniProt P16234 (whole entry, looked up): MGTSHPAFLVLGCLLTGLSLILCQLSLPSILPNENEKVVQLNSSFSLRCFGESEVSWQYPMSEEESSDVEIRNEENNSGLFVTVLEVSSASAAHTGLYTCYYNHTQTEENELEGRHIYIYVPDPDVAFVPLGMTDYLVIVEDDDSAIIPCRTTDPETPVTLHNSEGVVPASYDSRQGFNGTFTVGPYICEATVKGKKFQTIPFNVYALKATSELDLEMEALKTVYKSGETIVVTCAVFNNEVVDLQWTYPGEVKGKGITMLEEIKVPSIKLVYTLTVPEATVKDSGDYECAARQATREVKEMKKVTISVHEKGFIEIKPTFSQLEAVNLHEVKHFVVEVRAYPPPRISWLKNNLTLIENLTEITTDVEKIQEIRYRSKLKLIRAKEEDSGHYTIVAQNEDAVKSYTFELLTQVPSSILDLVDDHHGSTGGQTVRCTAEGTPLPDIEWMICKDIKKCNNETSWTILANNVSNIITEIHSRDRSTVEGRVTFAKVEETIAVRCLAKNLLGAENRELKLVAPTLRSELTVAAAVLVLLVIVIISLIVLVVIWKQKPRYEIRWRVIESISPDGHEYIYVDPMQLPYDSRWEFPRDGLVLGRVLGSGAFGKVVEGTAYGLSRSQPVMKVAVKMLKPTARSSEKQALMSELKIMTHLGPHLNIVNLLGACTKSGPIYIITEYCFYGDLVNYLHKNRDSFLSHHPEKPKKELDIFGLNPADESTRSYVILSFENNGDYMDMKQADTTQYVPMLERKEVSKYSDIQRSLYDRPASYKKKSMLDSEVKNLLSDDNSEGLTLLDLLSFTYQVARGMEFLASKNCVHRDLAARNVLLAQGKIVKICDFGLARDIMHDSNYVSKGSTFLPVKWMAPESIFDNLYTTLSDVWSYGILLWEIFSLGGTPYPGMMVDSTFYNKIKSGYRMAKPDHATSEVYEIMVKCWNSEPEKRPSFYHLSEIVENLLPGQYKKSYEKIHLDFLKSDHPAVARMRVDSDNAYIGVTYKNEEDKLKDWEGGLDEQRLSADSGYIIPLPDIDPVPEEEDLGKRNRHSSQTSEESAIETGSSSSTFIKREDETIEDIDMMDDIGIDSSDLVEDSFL

Study 1 — observed: enzyme activity; action: inhibitor; tested at: 0.5 µM; reference: control; measurement: remaining activity
Target: STE20-like serine/threonine-protein kinase (SLK, Homo sapiens, UniProt Q9H2G2)
Chain of UniProt Q9H2G2 (whole entry, looked up): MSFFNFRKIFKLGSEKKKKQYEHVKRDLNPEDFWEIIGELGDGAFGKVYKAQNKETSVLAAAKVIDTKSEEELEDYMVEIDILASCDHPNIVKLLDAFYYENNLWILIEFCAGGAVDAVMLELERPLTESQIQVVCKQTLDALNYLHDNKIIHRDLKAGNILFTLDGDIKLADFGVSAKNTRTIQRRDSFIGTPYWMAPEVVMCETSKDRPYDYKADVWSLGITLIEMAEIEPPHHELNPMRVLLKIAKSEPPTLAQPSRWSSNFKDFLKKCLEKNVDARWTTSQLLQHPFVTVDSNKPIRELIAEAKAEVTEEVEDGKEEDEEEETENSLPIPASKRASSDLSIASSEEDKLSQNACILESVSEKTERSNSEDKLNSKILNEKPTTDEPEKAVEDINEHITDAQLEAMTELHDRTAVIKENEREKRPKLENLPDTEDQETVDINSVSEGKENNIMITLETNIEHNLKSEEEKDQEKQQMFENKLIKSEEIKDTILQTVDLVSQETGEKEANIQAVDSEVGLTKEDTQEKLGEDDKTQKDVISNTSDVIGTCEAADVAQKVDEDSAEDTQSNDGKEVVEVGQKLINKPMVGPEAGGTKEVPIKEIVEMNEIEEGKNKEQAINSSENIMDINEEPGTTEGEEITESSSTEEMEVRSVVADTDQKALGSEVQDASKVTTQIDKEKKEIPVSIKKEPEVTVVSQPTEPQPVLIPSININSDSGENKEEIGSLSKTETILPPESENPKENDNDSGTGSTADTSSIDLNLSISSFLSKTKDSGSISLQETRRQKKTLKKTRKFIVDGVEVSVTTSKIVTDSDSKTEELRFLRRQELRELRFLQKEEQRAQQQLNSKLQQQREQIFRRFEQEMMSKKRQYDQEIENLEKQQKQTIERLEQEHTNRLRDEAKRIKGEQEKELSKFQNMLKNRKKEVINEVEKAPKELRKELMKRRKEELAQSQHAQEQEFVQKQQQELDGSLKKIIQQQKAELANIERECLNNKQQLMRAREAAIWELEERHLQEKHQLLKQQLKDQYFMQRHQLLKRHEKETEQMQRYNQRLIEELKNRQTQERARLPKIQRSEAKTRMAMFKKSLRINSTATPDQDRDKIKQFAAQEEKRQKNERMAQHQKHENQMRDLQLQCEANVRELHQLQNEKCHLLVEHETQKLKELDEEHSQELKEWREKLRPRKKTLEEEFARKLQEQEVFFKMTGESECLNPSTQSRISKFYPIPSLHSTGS
COc1cccc(-c2cc(=O)c3ccccc3o2)c1N: 102%
Cc1ccc(S(=O)(=O)/C=C/C#N)cc1: 101%
CCN(CC)CCCCN1c2ccccc2Oc2ccc(Cl)cc21: 105%
O=Nc1c(-c2c(O)[nH]c3cc(Br)ccc23)[nH]c2ccccc12: 56.1%
Cc1cc(Nc2cc(N3CCN(C)CC3)nc(Sc3ccc(NC(=O)C4CC4)cc3)n2)[nH]n1: 59.6%
O=C1Nc2ccccc2/C1=C\c1c(Cl)[nH]c2ccccc12: 93.5%
O=C1Nc2ccc(Br)cc2/C1=C/c1cc2c([nH]1)CCCC2: 73.4%
O=c1c(-c2ccc(F)cc2)c(-c2ccncc2)[nH]n1-c1ccc(Cl)cc1: 98.2%
O=C(O)/C=C/c1cc(Br)c(Br)c(Br)c1Br: 96%
O=C1Cc2c([nH]c3ccc(Br)cc23)-c2ccccc2N1: 95.7%
FC(F)(F)c1ccc(/C=C/c2nc(COc3ccc(CCCCn4ccnn4)cc3)co2)cc1: 92.8%
N#Cc1cnc2cnc(NCc3cccnc3)cc2c1Nc1ccc(F)c(Cl)c1: 86.6%
CCCCc1c(-c2ccc(O)cc2)[nH]c2nccnc12: 77.3%
CCCCc1c(-c2ccc(OC)cc2)[nH]c2nccnc12: 76.2%
C[C@@H](N)[C@H]1CC[C@H](C(=O)Nc2ccncc2)CC1: 94.7%
CC(C)N(CCC(=O)c1ccc2ccccc2c1)Cc1ccccc1: 101%
Nc1nc(Nc2ccc(S(N)(=O)=O)cc2)nn1C(=S)Nc1c(F)cccc1F: 4.58%
O=C1NC(=O)c2c1c1c3ccccc3[nH]c1c1[nH]c3cc(Br)ccc3c21: 90.9%
O=c1cc(N2CCOCC2)oc2c(-c3ccccc3)cccc12: 102%
COc1ccc(COc2ccc(Cc3cnc(N)nc3N)cc2OC)cc1: 97.7%
NC(=O)c1cccc(-c2cc(Nc3ccc(OC(F)(F)F)cc3)ncn2)c1: 98.2%
O=C(c1cc2cc(O)ccc2[nH]1)c1cc2cc(O)ccc2[nH]1: 78.6%
COc1ccc2c(c1)c(C1=C(c3c[nH]c4ccccc34)C(=O)NC1=O)cn2CCCN(C)C: 69.4%
Oc1cccc(-c2nc(N3CCOCC3)c3oc4ncccc4c3n2)c1: 101%

Study 2 — measurement: patients with adverse event
Structure (SMILES): CC(C)n1cnc(-c2ccc(F)cc2)c1-c1ncc(C(=O)Nc2ccc(N3CCN(C)CC3)cc2)[nH]1
Phase 2a trial, measured: blood urea increased; human, idiopathic pulmonary fibrosis; 60 mg once daily, grade 2: 0%
Phase 2a trial, measured: hypertriglyceridaemia; human, idiopathic pulmonary fibrosis; 30 mg once daily, grade 4: 0%
Phase 2a trial, measured: hepatobiliary disorders; human, idiopathic pulmonary fibrosis; 30 mg once daily, grade 4: 0%
measured: abnormal liver function test, grade 2; idiopathic pulmonary fibrosis patients; dose not given, all compound arms pooled: 0%
Phase 2a trial, measured: hypocalcaemia; human, idiopathic pulmonary fibrosis; 60 mg once daily, grade 3: 0%
Phase 2a trial, measured: hypertriglyceridaemia; human, idiopathic pulmonary fibrosis; 30 mg once daily, grade 3: 0%
measured: any adverse event, grade 5; idiopathic pulmonary fibrosis patients; oral, 30 mg once daily: 0%
Phase 2a trial, measured: blood glucose increased; human, idiopathic pulmonary fibrosis; 60 mg once daily, grade 2: 0%

Study 3 — cell line: mouse MPNST tumor cells; method: high-content nuclear imaging; measured: cell number; tested at: 10 µM; time: 12 h; setting: mean of 2 replicates; reference: plate mean; reading: higher = more cells; measurement: nuclei count
Clc1ccc(-c2nc3sccn3c2C=NOCc2ccc(Cl)c(Cl)c2)cc1: 1.49 z-score
O=C1OCCN1/N=C/c1ccc([N+](=O)[O-])o1: 0.648 z-score and 1.54 z-score
CC12CC3CC(C)(C1)CC(N)(C3)C2: 2.96 z-score and 2.31 z-score
CC1(C)N=C(N)N=C(N)N1c1ccc(Cl)cc1: -1.69 z-score
Nc1nc(NCc2ccccc2)nc(-c2ccccc2CO)n1: 0.322 z-score
CCOc1cc(CC(=O)N[C@@H](CC(C)C)c2ccccc2N2CCCCC2)ccc1C(=O)O: 1.72 z-score and 0.33 z-score
O=C(O)c1cccnc1Nc1cccc(C(F)(F)F)c1: -0.408 z-score

Study 4 — observed: cell-free assay; method: competition with immobilised ligand; tested at: 0.1 µM; measurement: remaining binding
SMILES: CS(=O)(=O)N1CCCC(NC(=O)[C@H](CCC2CCCCC2)NC(=O)c2ccc(CNc3ncnc4c3nnn4-c3ccccc3)cc2)C1 (stereo partly shown)
Mitogen-activated protein kinase 9 (MAPK9, Homo sapiens, UniProt P45984): 83%
Tyrosine-protein kinase ABL1, phosphorylated (ABL1, Homo sapiens, UniProt P00519, Y253F): 84%
Platelet-derived growth factor receptor alpha (PDGFRA, Homo sapiens, UniProt P16234): 91%
Serine/threonine-protein kinase MARK2 (MARK2, Homo sapiens, UniProt Q7KZI7): 100%
Epidermal growth factor receptor (EGFR, Homo sapiens, UniProt P00533, G719C): 86%
Serine/threonine-protein kinase D2 (PRKD2, Homo sapiens, UniProt Q9BZL6): 92%
Serine/threonine-protein kinase RIO1 (RIOK1, Homo sapiens, UniProt Q9BRS2): 54%
Dual specificity testis-specific protein kinase 1 (TESK1, Homo sapiens, UniProt Q15569): 100%

Study 5 — organism: Sarcocystis neurona; observed: parasite growth; tested at: 10 µM; measurement: inhibition
Fc1ccc([C@@H]2CCNC[C@H]2COc2ccc3c(c2)OCO3)cc1.O=C(O)/C=C\C(=O)O: 4.2%
Nc1ccn([C@H]2CC[C@@H](CO)O2)c(=O)n1: -21.3%
CN(CCOc1ccc(CC2SC(=O)NC2=O)cc1)c1ccccn1 (stereo not shown): 11.1%
CC(=O)OCC(=O)[C@@]12OC(C)(C)O[C@@H]1C[C@H]1[C@@H]3C[C@H](F)C4=CC(=O)C=C[C@]4(C)[C@@]3(F)[C@@H](O)C[C@@]12C: -35.3%
CC(C(=O)O)c1ccc(-c2ccccc2)c(F)c1 (stereo not shown): 3.6%

For quick reference, copied from above (study 2):
Phase 2a trial, measured: hepatobiliary disorders; human, idiopathic pulmonary fibrosis; 30 mg once daily, grade 4: 0%
measured: abnormal liver function test, grade 2; idiopathic pulmonary fibrosis patients; dose not given, all compound arms pooled: 0%
Phase 2a trial, measured: hypocalcaemia; human, idiopathic pulmonary fibrosis; 60 mg once daily, grade 3: 0%
Phase 2a trial, measured: hypertriglyceridaemia; human, idiopathic pulmonary fibrosis; 30 mg once daily, grade 3: 0%
measured: any adverse event, grade 5; idiopathic pulmonary fibrosis patients; oral, 30 mg once daily: 0%
Phase 2a trial, measured: blood glucose increased; human, idiopathic pulmonary fibrosis; 60 mg once daily, grade 2: 0%
